Measurements from different studies.
Lines come from different studies, so protocols differ.
Sequence of UniProt Q32MK0 (whole entry, looked up): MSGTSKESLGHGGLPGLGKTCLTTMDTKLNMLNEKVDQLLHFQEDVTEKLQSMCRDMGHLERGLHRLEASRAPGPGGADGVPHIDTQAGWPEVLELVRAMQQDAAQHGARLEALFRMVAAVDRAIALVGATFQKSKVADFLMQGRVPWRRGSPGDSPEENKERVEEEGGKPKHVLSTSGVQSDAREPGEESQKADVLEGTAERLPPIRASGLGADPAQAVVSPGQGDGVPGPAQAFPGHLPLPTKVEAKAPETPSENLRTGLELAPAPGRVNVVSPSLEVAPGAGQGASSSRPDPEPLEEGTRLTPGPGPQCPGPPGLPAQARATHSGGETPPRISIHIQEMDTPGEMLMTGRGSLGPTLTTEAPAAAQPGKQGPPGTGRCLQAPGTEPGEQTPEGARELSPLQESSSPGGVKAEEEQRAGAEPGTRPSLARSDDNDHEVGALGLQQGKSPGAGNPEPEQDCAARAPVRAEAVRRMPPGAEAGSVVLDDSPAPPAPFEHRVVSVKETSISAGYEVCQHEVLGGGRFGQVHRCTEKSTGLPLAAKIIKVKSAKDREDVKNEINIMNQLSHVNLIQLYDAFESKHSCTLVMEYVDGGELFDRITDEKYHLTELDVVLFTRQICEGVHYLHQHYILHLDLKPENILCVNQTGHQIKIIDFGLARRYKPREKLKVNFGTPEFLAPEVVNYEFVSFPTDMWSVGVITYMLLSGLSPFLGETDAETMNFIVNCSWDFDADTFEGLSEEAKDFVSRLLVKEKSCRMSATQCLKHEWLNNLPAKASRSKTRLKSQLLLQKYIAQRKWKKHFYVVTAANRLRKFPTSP
Sequence of UniProt Q6PHR2 (whole entry, looked up): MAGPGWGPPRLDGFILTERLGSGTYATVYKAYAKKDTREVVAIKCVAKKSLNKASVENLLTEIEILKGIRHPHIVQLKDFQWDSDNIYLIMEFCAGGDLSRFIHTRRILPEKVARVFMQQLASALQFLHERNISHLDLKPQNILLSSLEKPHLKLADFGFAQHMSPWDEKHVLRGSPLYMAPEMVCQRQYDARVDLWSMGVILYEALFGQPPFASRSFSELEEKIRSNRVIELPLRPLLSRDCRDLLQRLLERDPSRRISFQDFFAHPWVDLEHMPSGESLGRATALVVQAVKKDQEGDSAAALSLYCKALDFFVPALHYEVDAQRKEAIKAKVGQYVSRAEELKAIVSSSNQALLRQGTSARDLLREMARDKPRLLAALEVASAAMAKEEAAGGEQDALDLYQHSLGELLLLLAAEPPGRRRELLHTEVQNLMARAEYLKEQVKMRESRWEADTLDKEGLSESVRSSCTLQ
Sequence of UniProt O95835 (whole entry, looked up): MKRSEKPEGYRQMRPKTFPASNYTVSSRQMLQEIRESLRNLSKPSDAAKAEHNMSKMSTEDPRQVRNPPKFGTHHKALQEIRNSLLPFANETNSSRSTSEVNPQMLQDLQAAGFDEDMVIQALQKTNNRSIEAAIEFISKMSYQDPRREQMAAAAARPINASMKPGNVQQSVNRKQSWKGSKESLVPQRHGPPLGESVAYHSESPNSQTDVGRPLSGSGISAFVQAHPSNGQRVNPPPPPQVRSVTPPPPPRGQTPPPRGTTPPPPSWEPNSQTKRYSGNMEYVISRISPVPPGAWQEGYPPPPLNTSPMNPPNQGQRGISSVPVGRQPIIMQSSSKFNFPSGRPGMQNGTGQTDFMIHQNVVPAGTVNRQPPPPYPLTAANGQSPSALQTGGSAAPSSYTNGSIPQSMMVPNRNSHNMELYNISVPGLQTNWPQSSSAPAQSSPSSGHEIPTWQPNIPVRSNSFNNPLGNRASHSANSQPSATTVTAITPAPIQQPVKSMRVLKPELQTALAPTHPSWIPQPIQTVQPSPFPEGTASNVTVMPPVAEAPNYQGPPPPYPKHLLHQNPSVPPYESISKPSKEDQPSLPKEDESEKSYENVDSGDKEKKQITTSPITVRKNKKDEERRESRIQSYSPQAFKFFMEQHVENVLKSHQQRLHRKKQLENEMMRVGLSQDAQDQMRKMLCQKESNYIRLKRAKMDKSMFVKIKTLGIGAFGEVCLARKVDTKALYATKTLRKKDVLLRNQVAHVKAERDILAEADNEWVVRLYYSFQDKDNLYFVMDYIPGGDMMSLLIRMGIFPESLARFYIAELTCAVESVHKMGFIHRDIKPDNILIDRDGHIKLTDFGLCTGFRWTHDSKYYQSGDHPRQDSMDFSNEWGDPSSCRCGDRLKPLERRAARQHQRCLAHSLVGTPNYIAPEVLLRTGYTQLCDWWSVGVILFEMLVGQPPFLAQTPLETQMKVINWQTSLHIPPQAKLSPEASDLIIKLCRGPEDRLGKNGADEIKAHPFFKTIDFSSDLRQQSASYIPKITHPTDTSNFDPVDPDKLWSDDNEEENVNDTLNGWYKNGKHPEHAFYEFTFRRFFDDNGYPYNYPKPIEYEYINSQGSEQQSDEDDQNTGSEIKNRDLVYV
Sequence of UniProt P51817 (whole entry, looked up): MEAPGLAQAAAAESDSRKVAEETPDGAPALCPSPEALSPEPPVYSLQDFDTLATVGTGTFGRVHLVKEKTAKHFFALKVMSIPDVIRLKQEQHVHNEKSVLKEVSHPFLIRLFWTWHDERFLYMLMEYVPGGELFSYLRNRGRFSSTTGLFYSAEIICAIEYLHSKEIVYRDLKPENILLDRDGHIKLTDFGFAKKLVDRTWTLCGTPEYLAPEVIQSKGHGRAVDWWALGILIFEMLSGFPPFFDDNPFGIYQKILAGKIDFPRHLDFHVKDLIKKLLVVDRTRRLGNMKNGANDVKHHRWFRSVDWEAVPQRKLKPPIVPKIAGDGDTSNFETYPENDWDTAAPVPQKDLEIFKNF
Sequence of UniProt Q00535 (whole entry, looked up): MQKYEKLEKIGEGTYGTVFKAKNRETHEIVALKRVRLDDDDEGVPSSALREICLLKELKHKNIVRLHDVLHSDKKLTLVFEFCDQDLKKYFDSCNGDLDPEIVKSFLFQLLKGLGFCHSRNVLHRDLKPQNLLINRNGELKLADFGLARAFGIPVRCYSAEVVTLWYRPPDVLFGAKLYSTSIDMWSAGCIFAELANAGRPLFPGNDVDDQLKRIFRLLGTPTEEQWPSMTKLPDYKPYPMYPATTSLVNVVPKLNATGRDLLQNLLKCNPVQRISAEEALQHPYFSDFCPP
Sequence of UniProt O43781 (whole entry, looked up): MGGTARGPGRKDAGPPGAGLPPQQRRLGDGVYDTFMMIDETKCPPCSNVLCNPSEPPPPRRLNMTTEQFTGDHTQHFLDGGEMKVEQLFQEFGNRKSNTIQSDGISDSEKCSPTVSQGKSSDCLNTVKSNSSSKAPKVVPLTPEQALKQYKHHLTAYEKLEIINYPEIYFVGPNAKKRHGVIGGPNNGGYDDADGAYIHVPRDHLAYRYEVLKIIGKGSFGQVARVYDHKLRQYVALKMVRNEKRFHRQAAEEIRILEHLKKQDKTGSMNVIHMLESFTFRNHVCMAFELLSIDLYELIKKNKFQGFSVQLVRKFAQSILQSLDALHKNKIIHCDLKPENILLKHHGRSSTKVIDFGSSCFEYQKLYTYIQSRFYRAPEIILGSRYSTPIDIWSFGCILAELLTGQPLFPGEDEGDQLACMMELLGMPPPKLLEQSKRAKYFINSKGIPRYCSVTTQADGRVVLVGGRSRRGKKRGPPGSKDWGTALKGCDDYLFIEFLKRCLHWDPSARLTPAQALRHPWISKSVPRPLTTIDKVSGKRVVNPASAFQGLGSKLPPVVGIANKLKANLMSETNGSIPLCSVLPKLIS
Sequence of UniProt P48039 (whole entry, looked up): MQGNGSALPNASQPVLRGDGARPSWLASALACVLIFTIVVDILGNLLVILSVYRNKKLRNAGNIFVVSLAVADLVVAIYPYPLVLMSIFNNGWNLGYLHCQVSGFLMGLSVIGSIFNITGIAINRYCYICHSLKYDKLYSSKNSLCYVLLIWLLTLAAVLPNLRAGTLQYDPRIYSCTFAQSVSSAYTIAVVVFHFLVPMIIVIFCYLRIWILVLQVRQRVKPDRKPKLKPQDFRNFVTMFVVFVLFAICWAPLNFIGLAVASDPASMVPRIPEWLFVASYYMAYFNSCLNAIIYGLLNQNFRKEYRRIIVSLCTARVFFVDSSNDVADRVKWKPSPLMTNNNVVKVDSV

Compound	target	assay	system	setting	quantity	value
C1=C/COCc2cc(ccc2OCCN2CCCC2)Nc2nccc(n2)-c2cccc(c2)COC/1	FLT3 (Homo sapiens, UniProt P36888, D835Y)	binding	–	0.1 µM	remaining binding	8.2%
CCCCC(=O)Nc1ccc(-c2ccc3ncn(CCC)c(=O)c3c2)cn1	PRKX (Homo sapiens, UniProt P51817)	binding, competition with immobilised ligand	–	0.5 µM	remaining binding	100%
CC[C@H](C)[C@H](NC(=O)[C@H](CCC(N)=O)NC(=O)[C@@H](NC(=O)[C@H](CCSC)NC(=O)[C@H](CCCCN)NC(=O)[C@H](CO)NC(=O)[C@@H](NC(=O)[C@H](CCSC)NC(=O)[C@H](CC(C)C)NC(=O)[C@H](CC(N)=O)NC(=O)[C@@H](NC(=O)[C@@H](NC(=O)[C@H](CO)NC(=O)[C@H](CC(C)C)NC(=O)[C@H](C)NC(=O)[C@H](CCCNC(=N)N)NC(=O)[C@H](CCC(=O)O)NC(=O)[C@H](Cc1ccc(O)cc1)NC(=O)[C@H](Cc1ccccc1)NC(=O)[C@H](C)NC(=O)[C@H](CC(N)=O)NC(=O)[C@@H](N)CCCCN)[C@@H](C)CC)[C@@H](C)CC)[C@@H](C)O)C(C)C)C(=O)N[C@@H](CC(N)=O)C(=O)N[C@H](C(=O)O)C(C)C	Cyclin-dependent kinase 5, with p35 (CDK5, Homo sapiens, UniProt Q00535)	enzyme activity, inhibitor, radiometric	–	500 µM	inhibition	84%
Cc1cc([C@@H](C)Nc2ccccc2C(=O)O)c2nc(N3CCC(F)(F)CC3)c(C#N)c(=O)n2c1	MAPK14 (Homo sapiens, UniProt Q16539)	binding, competition with immobilised ligand	–	10 µM	remaining binding	92%
CNc1ncc2c(/C=C/C(=O)N3CCC(OC)CC3)nn(Cc3cccc(C(F)(F)F)c3)c2n1	MYLK3 (Homo sapiens, UniProt Q32MK0)	enzyme activity, inhibitor, radiometric	–	1 µM	remaining activity	95%
COc1cc(-c2cncc3c2CN(C)Cc2cc(N4CCNCC4)ccc2-3)cc(OC)c1OC	ULK3 (Homo sapiens, UniProt Q6PHR2)	enzyme activity, inhibitor	–	1 µM	remaining activity	107%
COCC(CNC(C)=O)c1cccc2ccc(OC)cc12 (centres unmarked)	MTNR1A (Homo sapiens, UniProt P48039)	β-arrestin recruitment, agonist	CHO-K1	90 min	Emax	81%
C=CC(=O)N1CCC(COCC(=O)N2CCN(c3nc(-c4cnc(N)nc4C(F)F)nc(N4CCOC[C@@H]4C)n3)CC2)CC1	LATS1 (Homo sapiens, UniProt O95835)	binding, competition with immobilised ligand	–	1 µM	remaining binding	96%
Nc1ncnc2occ(-c3ccc(NC(=O)Nc4cc(C(F)(F)F)ccc4F)cc3)c12	PIK3CA (Homo sapiens, UniProt P42336, E545A)	cell-free assay, inhibitor	–	20 µM	remaining signal	56%
COc1cc(I)c2[nH]cc(CCNC(C)=O)c2c1	MTNR1B (Homo sapiens, UniProt P49286)	cAMP, agonist, TR-FRET	CHO-K1	20 min	Emax	102%
FC(F)(F)Oc1cccc(-c2cnc3ccc(-c4ccncc4)nn23)c1	DYRK3 (Homo sapiens, UniProt O43781)	enzyme activity, inhibitor, radiometric	–	1 µM	activity vs control	48%

Some of these lines once more:
Compound	target	assay	system	setting	quantity	value
CNc1ncc2c(/C=C/C(=O)N3CCC(OC)CC3)nn(Cc3cccc(C(F)(F)F)c3)c2n1	MYLK3 (Homo sapiens, UniProt Q32MK0)	enzyme activity, inhibitor, radiometric	–	1 µM	remaining activity	95%
